Measurements gathered from unrelated publications.
A part holds a random share of what one study measured.
UniProt O75716, sequence (whole entry, looked up): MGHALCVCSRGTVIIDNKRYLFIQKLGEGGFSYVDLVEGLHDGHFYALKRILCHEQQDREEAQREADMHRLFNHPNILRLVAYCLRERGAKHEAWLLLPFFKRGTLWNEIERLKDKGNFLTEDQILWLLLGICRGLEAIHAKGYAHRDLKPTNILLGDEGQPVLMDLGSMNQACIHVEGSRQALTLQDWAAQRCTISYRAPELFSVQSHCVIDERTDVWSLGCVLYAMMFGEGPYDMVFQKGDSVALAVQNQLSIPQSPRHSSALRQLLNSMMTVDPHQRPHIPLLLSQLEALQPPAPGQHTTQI
UniProt Q9H3Y6, sequence (whole entry, looked up): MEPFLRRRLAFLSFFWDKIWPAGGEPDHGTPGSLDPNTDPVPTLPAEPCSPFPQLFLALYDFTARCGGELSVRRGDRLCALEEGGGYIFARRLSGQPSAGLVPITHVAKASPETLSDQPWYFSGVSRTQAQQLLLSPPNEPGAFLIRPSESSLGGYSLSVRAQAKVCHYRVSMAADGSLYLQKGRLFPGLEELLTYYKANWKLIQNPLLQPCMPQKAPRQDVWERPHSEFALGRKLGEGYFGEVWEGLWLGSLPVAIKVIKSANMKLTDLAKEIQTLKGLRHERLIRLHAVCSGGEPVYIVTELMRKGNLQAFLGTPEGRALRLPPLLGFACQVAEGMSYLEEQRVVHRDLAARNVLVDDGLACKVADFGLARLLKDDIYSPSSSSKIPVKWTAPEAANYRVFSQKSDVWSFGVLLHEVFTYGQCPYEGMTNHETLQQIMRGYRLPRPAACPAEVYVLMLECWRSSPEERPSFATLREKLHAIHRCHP
UniProt P42336, sequence (whole entry, unmodified, looked up): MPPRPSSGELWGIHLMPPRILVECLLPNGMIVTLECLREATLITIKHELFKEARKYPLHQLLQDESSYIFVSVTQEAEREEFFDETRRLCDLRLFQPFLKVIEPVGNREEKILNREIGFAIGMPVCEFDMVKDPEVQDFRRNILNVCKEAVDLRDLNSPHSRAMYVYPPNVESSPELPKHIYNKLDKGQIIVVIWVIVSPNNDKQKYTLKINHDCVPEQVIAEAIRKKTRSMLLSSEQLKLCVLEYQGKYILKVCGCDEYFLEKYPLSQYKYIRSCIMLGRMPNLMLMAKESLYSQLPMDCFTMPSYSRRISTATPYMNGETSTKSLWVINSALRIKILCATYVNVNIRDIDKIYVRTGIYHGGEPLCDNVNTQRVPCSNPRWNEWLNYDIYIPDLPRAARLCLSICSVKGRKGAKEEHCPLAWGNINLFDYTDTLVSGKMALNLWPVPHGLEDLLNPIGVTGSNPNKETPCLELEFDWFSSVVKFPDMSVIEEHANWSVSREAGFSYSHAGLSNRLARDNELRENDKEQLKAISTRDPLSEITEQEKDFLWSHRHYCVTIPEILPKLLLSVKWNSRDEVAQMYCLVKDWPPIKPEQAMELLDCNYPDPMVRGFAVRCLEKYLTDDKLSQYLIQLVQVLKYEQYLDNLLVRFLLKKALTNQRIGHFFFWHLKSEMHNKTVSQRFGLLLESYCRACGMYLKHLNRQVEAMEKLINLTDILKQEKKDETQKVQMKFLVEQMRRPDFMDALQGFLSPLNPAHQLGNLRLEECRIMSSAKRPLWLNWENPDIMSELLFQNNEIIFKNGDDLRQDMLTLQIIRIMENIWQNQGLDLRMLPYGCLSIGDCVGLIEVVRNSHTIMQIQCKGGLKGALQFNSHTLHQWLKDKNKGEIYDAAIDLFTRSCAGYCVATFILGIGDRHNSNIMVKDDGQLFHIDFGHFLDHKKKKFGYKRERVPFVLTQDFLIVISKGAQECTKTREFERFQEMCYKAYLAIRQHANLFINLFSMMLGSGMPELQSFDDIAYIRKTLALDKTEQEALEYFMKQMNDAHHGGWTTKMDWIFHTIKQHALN
UniProt Q04771, sequence (whole entry, looked up): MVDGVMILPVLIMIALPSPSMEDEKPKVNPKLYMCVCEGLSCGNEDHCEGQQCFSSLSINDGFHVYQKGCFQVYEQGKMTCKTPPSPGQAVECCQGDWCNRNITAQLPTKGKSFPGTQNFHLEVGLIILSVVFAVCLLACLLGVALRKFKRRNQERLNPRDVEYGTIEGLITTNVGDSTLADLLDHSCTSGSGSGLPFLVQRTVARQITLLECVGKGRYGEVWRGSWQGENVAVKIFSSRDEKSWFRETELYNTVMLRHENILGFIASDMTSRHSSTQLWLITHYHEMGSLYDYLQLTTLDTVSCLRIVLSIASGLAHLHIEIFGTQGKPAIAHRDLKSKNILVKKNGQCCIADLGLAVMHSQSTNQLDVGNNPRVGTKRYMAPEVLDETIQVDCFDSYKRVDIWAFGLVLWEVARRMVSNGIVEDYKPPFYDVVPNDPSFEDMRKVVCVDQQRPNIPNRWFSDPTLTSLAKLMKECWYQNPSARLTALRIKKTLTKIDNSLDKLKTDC
UniProt P22612, sequence (whole entry, looked up): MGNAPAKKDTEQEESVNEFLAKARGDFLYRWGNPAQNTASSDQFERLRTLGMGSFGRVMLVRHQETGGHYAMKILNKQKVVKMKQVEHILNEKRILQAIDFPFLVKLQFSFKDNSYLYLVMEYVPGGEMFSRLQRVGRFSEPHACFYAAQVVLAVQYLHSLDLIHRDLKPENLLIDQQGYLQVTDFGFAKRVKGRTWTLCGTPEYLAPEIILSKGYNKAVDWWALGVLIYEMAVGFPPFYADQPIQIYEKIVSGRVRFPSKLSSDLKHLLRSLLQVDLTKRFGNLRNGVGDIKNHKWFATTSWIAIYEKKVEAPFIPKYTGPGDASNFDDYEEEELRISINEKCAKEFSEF
UniProt Q09013, sequence (whole entry, looked up): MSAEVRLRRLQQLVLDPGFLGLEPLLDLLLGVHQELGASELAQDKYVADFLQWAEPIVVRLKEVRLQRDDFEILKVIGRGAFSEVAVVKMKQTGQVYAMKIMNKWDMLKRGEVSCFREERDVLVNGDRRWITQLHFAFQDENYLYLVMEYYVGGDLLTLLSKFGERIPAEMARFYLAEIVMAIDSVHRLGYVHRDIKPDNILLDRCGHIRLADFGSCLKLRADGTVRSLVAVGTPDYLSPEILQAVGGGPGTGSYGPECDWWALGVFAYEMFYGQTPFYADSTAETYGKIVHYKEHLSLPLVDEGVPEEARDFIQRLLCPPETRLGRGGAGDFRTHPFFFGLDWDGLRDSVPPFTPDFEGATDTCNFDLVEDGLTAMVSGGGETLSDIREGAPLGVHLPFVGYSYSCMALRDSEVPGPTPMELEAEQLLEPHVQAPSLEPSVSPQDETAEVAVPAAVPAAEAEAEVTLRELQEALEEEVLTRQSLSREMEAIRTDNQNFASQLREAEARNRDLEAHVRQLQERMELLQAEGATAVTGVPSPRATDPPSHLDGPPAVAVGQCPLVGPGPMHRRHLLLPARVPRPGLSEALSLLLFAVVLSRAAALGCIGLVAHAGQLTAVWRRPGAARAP
UniProt Q16644, sequence (whole entry, looked up): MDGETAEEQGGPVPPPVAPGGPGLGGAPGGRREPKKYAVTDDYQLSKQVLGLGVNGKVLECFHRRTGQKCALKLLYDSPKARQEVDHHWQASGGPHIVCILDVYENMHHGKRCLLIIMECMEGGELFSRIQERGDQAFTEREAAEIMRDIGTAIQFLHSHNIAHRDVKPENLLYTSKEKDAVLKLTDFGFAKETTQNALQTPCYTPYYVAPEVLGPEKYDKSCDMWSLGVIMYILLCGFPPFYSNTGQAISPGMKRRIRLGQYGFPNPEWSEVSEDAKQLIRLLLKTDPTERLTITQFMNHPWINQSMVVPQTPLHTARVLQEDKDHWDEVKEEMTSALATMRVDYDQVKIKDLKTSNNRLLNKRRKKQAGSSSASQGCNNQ
UniProt P36894, sequence (whole entry, looked up): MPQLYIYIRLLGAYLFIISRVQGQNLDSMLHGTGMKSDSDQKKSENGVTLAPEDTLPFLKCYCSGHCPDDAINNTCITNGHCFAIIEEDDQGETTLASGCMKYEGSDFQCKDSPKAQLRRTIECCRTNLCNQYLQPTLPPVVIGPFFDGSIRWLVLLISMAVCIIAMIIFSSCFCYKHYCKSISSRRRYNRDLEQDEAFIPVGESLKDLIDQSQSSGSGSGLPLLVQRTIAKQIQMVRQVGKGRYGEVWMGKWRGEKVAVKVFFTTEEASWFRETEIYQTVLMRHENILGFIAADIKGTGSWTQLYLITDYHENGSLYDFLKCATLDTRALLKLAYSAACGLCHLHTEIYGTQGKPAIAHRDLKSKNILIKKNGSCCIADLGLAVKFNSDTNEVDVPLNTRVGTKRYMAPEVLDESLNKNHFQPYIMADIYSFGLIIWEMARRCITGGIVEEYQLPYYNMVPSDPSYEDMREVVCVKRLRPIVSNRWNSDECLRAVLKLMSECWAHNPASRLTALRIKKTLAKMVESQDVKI
UniProt Q9NYY3, sequence (whole entry, looked up): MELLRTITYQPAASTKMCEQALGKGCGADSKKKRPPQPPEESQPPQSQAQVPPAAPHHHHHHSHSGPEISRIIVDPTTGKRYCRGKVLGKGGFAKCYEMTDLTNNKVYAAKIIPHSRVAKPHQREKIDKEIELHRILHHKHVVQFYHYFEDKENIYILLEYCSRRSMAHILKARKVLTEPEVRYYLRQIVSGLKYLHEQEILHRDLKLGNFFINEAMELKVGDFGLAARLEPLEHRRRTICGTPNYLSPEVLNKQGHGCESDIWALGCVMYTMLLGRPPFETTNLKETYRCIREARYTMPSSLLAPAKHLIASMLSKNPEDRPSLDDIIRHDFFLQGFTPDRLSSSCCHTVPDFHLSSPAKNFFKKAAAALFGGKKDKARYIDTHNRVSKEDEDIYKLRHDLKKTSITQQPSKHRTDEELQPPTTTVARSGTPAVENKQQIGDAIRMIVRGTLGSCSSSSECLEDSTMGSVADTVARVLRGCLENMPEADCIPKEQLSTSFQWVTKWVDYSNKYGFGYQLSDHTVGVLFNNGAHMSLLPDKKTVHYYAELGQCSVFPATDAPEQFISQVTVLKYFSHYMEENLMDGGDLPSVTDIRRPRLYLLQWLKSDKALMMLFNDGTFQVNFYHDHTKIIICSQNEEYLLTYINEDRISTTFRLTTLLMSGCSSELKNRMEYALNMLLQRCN

Series 1
Target: Prothrombin, mature alpha-thrombin (F2, Homo sapiens, UniProt P00734)
Method: aptamer microarray, sandwich
Form: DNA with 2'F-ANA
Matrix: in vitro
Concentration: 200 nM
Notes: whole 15-mer aptamer, many near background
With: Cy3 exosite-II aptamer, 400 nM
Direction: higher = stronger binding
Strand: GGTTGGTGTGGTTGG
| Modification | mean fluorescence intensity |
| --- | --- |
| 2'F-ANA at 4 6 7 8 10 11 12 13 14 15 | 58.3 a.u. |
| 2'F-ANA at 2 3 8 | 948 a.u. |
| 2'F-ANA at 2 8 9 11 13 15 | 298 a.u. |
| 2'F-ANA at 1 2 3 8 11 13 14 15 | 69.2 a.u. |
| 2'F-ANA at 1 3 4 5 8 11 14 | 110 a.u. |
| 2'F-ANA at 1 3 4 5 8 9 11 14 | 55.1 a.u. |
| 2'F-ANA at 1 2 3 7 8 13 14 15 | 83.6 a.u. |
| 2'F-ANA at 1 2 3 4 7 8 9 13 14 | 62.1 a.u. |

Series 2
Compound: CCc1[nH]c(-c2ccc(OC)cc2)nc1-c1ccncc1
Effect on: enzyme activity
Mode: inhibitor
Concentration: 0.5 µM
Reference: control
| target | remaining activity [%] |
| --- | --- |
| STK16 (Homo sapiens, UniProt O75716) | 108 |
| MAPKAPK3 (Homo sapiens, UniProt Q16644) | 102 |
| MAP4K4 (Homo sapiens, UniProt O95819) | 91.9 |
| WNK3 (Homo sapiens, UniProt Q9BYP7) | 97.3 |
| STK17A (Homo sapiens, UniProt Q9UEE5) | 96.1 |
| RPS6KA6 (Homo sapiens, UniProt Q9UK32) | 111 |
| HIPK4 (Homo sapiens, UniProt Q8NE63) | 90 |
| EPHB4 (Homo sapiens, UniProt P54760) | 90.3 |
| TSSK2 (Homo sapiens, UniProt Q96PF2) | 98.7 |
| PRKACG (Homo sapiens, UniProt P22612) | 103 |

Series 3
SMILES: Cc1c[nH]c2nccc(Oc3c(F)cc(Nc4cc(Cl)nc(N)n4)cc3F)c12
Method: competition with immobilised ligand
Concentration: 0.1 µM
| target | effect on | remaining binding [%] |
| --- | --- | --- |
| STK16 (Homo sapiens, UniProt O75716) | cell-free assay | 87 |
| SRMS (Homo sapiens, UniProt Q9H3Y6) | cell-free assay | 100 |
| BMPR1A (Homo sapiens, UniProt P36894) | binding | 85 |
| Tyrosine-protein kinase JAK3, JH1 (JAK3, Homo sapiens, UniProt P52333) | cell-free assay | 92 |
| CSNK2A1 (Homo sapiens, UniProt P68400) | cell-free assay | 100 |
| CDK3 (Homo sapiens, UniProt Q00526) | cell-free assay | 97 |
| CSNK1G1 (Homo sapiens, UniProt Q9HCP0) | cell-free assay | 100 |
| PLK2 (Homo sapiens, UniProt Q9NYY3) | cell-free assay | 59 |
| FLT3 (Homo sapiens, UniProt P36888, F691L/ITD) | cell-free assay | 54 |
| PRKACB (Homo sapiens, UniProt P22694) | cell-free assay | 36 |
| DMPK (Homo sapiens, UniProt Q09013) | cell-free assay | 56 |
| PIK3CA (Homo sapiens, UniProt P42336, E545K) | cell-free assay | 82 |
| ACVR1 (Homo sapiens, UniProt Q04771) | cell-free assay | 94 |

Single results of other studies
Method: cross-linking MS
| Molecule | partner | matrix | notes | with | measurement | result |
| --- | --- | --- | --- | --- | --- | --- |
| EMC8 (Homo sapiens, UniProt O43402) | EMC2 (Homo sapiens, UniProt Q15006) |  | hits only |  | interaction screen | cross-linked |
| RIPOR1 (Homo sapiens, UniProt Q6ZS17) | NDUFA12 (Homo sapiens, UniProt Q9UI09) | cell fractions |  | DSSO | cross-linked residues | S1104 to K43 |

Repeated from above (series 3):
| target | effect on | remaining binding [%] |
| --- | --- | --- |
| STK16 (Homo sapiens, UniProt O75716) | cell-free assay | 87 |
| SRMS (Homo sapiens, UniProt Q9H3Y6) | cell-free assay | 100 |
| BMPR1A (Homo sapiens, UniProt P36894) | binding | 85 |
| Tyrosine-protein kinase JAK3, JH1 (JAK3, Homo sapiens, UniProt P52333) | cell-free assay | 92 |
| CSNK2A1 (Homo sapiens, UniProt P68400) | cell-free assay | 100 |
